{"data": "Experimental data pooled from the literature", "note": "Each numbered part is a random draw from the data of one study; scales do not carry over between parts. Positions count from the first letter of the parent shown."}
{"data": "Sample 1", "target": "CCNB1, cyclin fold, Cln2 fusion (human)", "method": "yeast growth competition, sequencing", "medium": "yeast", "notes": "strong parent motif", "reference": "not given", "direction": "higher = stronger binding", "starting sequence": "MICAL3 docking peptide (human); LQLRRQLSFSEDS; partner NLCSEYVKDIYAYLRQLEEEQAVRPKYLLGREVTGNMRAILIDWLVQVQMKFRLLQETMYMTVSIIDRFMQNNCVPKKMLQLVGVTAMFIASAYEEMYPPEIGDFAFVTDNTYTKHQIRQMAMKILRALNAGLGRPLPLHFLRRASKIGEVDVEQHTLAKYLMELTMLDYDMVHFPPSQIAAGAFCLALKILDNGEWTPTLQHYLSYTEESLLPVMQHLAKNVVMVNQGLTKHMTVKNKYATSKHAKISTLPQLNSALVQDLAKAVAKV"}
{"Substitution": "L3M", "normalised enrichment score": 2.85}
{"Substitution": "S8I", "normalised enrichment score": 2.84}
{"Substitution": "L7H", "normalised enrichment score": 0.372}
{"Substitution": "E11Y", "normalised enrichment score": 2.13}
{"Substitution": "S8G", "normalised enrichment score": 0.19}
{"Substitution": "E11V", "normalised enrichment score": 2.1}
{"Substitution": "Q6R", "normalised enrichment score": 6.07}
{"Substitution": "Q2D", "normalised enrichment score": 3.81}
{"data": "Sample 2", "target": "Alpha-2B adrenergic receptor (ADRA2B, Homo sapiens, UniProt P18089)", "read-out": "ligand displacement", "tested at": "10 µM", "UniProt P18089, sequence (whole entry, looked up)": "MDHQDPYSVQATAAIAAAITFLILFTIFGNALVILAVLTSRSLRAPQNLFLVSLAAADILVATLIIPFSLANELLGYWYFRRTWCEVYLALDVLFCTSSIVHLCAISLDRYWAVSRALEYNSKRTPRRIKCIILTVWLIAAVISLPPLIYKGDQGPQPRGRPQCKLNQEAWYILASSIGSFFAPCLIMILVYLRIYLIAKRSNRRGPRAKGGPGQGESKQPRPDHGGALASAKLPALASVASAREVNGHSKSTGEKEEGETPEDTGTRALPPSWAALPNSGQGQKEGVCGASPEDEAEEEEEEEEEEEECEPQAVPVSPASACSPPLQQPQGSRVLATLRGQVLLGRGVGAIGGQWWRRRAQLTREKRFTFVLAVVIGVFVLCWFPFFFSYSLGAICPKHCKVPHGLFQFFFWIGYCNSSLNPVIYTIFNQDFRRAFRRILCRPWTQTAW"}
{"Structure (SMILES)": "CCc1ccccc1C(=O)Nc1n[nH]c2c(C)c(F)c(C3C(C#N)=C(C)N(C)C(C)=C3C#N)cc12", "inhibition": "10.6%"}
{"Structure (SMILES)": "CC1CCN(c2ccnc(NCc3cn(C)cn3)n2)CC1", "inhibition": "56.3%"}
{"Structure (SMILES)": "O=C(NS(=O)(=O)c1ccc(NCC2CCOCC2)c([N+](=O)[O-])c1)c1ccc(N2CCN(Cc3ccc(C(F)(F)F)cc3-c3ccc(Cl)cc3)CC2)cc1Oc1cnc2[nH]ccc2c1", "inhibition": "15.6%"}
{"data": "Sample 3", "target": "Tyrosine-protein kinase ABL1 (ABL1, Homo sapiens, UniProt P00519)", "read-out": "enzyme activity", "action": "inhibitor", "tested at": "0.5 µM", "reference": "control", "UniProt P00519, sequence (whole entry, looked up)": "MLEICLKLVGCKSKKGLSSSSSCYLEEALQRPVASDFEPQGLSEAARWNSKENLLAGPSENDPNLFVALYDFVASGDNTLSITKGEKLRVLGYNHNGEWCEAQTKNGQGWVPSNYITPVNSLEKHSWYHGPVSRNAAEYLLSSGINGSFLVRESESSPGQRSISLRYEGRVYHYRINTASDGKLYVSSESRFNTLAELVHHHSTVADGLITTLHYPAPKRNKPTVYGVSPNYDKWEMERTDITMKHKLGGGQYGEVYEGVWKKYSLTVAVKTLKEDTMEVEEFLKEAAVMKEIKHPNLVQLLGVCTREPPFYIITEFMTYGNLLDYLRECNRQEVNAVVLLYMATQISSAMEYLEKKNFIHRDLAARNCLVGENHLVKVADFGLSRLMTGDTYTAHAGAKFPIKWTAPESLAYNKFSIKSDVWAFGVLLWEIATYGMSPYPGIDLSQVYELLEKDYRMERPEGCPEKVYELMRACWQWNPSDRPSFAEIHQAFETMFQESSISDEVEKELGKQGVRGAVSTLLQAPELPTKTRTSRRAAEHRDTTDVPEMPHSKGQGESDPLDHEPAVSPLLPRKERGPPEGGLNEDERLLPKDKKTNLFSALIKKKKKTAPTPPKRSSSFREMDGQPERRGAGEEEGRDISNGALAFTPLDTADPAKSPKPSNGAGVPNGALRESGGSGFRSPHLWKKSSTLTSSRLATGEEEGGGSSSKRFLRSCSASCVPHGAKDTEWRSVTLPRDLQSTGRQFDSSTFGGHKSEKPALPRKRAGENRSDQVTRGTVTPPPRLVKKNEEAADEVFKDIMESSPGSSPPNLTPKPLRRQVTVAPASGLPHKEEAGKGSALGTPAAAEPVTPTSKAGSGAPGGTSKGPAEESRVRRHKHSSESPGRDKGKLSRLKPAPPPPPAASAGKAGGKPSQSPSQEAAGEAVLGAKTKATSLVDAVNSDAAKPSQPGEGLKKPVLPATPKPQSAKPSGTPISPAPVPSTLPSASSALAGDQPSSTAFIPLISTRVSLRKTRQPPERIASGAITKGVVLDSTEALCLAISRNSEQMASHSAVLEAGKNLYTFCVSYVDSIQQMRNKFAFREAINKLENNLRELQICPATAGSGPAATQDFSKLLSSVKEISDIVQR"}
{"Structure (SMILES)": "CN(C)C[C@H]1CCn2c(c(C3=C(c4cn(C)c5ccccc45)C(=O)NC3=O)c3ccccc32)C1", "remaining activity [%]": 98}
{"Structure (SMILES)": "CCN(CC)C(=O)c1ccc(Nc2nc(OCC3CCCCC3)c3[nH]cnc3n2)cc1", "remaining activity [%]": 67.1}
{"Structure (SMILES)": "O=c1cc(-c2cccc3c2Sc2ccccc2S3)oc(N2CCOCC2)c1", "remaining activity [%]": 99.5}
{"Structure (SMILES)": "Cc1cc2ncc(-c3ccccc3)nc2cc1C", "remaining activity [%]": 99.6}
{"data": "Mixed results", "method": "cross-linking MS"}
{"Substance": "STBD1 (Homo sapiens, UniProt O95210)", "partner": "YWHAE (Homo sapiens, UniProt P62258)", "test system": "cell fractions", "setting": "added: DSSO", "endpoint": "cross-linked residues", "result": "S265 to K125"}
{"Substance": "TMED2 (Homo sapiens, UniProt Q15363)", "partner": "TMED4 (Homo sapiens, UniProt Q7Z7H5)", "test system": "cell fractions", "setting": "added: DSSO", "endpoint": "cross-linked residues", "result": "T123 to K152"}
{"Substance": "SNRPA1 (Homo sapiens, UniProt P09661)", "partner": "SF3A1 (Homo sapiens, UniProt Q15459)", "test system": "cell fractions", "setting": "added: DSSO", "endpoint": "cross-linked residues", "result": "K221 to K188"}
{"Substance": "DYNC1I2 (Homo sapiens, UniProt Q13409)", "partner": "DYNC1H1 (Homo sapiens, UniProt Q14204)", "setting": "hits only", "endpoint": "interaction screen", "result": "cross-linked"}
{"note": "Repeated from above (mixed results):"}
{"Substance": "STBD1 (Homo sapiens, UniProt O95210)", "partner": "YWHAE (Homo sapiens, UniProt P62258)", "test system": "cell fractions", "setting": "added: DSSO", "endpoint": "cross-linked residues", "result": "S265 to K125"}
{"Substance": "TMED2 (Homo sapiens, UniProt Q15363)", "partner": "TMED4 (Homo sapiens, UniProt Q7Z7H5)", "test system": "cell fractions", "setting": "added: DSSO", "endpoint": "cross-linked residues", "result": "T123 to K152"}
{"Substance": "SNRPA1 (Homo sapiens, UniProt P09661)", "partner": "SF3A1 (Homo sapiens, UniProt Q15459)", "test system": "cell fractions", "setting": "added: DSSO", "endpoint": "cross-linked residues", "result": "K221 to K188"}
